Experimental data of several laboratories.
Each numbered part is a random draw from the data of one study; scales do not carry over between parts. “And” joins repeats or separate records; there may be more than shown.
Chain of UniProt Q15303 (whole entry, looked up): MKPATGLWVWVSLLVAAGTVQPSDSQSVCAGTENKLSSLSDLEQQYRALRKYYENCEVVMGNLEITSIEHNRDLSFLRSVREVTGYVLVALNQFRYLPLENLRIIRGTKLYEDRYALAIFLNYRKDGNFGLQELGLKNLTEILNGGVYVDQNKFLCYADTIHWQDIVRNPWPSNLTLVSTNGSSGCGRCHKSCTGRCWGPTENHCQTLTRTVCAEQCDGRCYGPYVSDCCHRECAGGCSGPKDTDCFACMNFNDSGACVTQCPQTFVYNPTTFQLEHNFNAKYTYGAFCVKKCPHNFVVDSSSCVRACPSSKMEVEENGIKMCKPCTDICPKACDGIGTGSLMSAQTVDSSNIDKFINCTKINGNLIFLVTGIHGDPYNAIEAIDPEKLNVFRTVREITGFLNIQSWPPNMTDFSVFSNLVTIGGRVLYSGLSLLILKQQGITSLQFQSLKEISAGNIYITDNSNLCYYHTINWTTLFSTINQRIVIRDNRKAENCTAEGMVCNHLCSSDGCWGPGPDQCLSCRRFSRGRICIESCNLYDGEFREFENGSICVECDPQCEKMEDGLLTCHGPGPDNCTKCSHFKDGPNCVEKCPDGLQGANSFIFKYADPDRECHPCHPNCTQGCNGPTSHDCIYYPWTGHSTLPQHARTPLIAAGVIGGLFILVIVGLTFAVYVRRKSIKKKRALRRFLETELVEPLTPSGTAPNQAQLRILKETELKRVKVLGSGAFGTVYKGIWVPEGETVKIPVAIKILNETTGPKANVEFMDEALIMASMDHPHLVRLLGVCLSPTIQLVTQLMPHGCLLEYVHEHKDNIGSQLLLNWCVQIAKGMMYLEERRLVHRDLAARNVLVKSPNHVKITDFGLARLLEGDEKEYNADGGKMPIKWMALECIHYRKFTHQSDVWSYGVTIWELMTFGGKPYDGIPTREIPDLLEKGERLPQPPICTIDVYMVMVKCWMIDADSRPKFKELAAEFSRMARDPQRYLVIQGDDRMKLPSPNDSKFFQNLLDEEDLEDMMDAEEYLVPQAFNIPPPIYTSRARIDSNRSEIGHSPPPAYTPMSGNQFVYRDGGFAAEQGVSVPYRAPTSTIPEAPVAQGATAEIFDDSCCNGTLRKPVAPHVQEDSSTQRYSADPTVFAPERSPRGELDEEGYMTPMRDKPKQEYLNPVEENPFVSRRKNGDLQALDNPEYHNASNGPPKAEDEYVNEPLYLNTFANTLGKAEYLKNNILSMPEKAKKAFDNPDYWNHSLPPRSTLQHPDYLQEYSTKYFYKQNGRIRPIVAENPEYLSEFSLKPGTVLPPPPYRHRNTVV

Series 1 — concentration: 1 µM
Compound: CC[C@@]1(c2ccccc2)C2=C(CC(C)(C)CC2=O)Nc2n[nH]cc21
| target | assay | how to read | remaining binding |
| --- | --- | --- | --- |
| PHKG2 (Homo sapiens, UniProt P15735) | binding, competition with immobilised ligand | – | 98% |
| Tyrosine-protein kinase ABL1, phosphorylated (ABL1, Homo sapiens, UniProt P00519, Q252H) | binding, competition with immobilised ligand | – | 66% |
| PRKCD (Homo sapiens, UniProt Q05655) | binding, competition with immobilised ligand | – | 100% |
| PLK4 (Homo sapiens, UniProt O00444) | binding, competition with immobilised ligand | – | 100% |
| ERBB4 (Homo sapiens, UniProt Q15303) | binding, competition with immobilised ligand | – | 88% |
| MAPK6 (Homo sapiens, UniProt Q16659) | kinase binding, KINOMEscan | relative to: DMSO control | 100% |
| TYRO3 (Homo sapiens, UniProt Q06418) | binding, competition with immobilised ligand | – | 100% |
| CDK11A (Homo sapiens, UniProt Q9UQ88) | kinase binding, KINOMEscan | relative to: DMSO control | 100% |
| PIK3CD (Homo sapiens, UniProt O00329) | kinase binding, KINOMEscan | relative to: DMSO control | 100% |
| MET (Homo sapiens, UniProt P08581, M1250T) | kinase binding, KINOMEscan | relative to: DMSO control | 100% |
| CDPK1 (Plasmodium falciparum, UniProt P62344) | binding, competition with immobilised ligand | – | 96% |
| AAK1 (Homo sapiens, UniProt Q2M2I8) | kinase binding, KINOMEscan | relative to: DMSO control | 90% |
| FLT3 (Homo sapiens, UniProt P36888) | kinase binding, KINOMEscan | relative to: DMSO control | 100% |
| BRAF (Homo sapiens, UniProt P15056, V600E) | kinase binding, KINOMEscan | relative to: DMSO control | 100% |
| EPHA1 (Homo sapiens, UniProt P21709) | binding, competition with immobilised ligand | – | 95% |
| MAPK8 (Homo sapiens, UniProt P45983) | binding, competition with immobilised ligand | – | 87% |
| PHKG1 (Homo sapiens, UniProt Q16816) | binding, competition with immobilised ligand | – | 96% |
| CDK11B (Homo sapiens, UniProt P21127) | binding, competition with immobilised ligand | – | 100% |
| FLT3 (Homo sapiens, UniProt P36888, R834Q) | kinase binding, KINOMEscan | relative to: DMSO control | 100% |
| FER (Homo sapiens, UniProt P16591) | binding, competition with immobilised ligand | – | 100% |
| MAP4K4 (Homo sapiens, UniProt O95819) | binding, competition with immobilised ligand | – | 100% |
| Ribosomal protein S6 kinase alpha-2, C-terminal kinase domain (RPS6KA2, Homo sapiens, UniProt Q15349) | binding, competition with immobilised ligand | – | 78% |
| IGF1R (Homo sapiens, UniProt P08069) | binding, competition with immobilised ligand | – | 100% |
| Cyclin-dependent kinase 4, with cyclin D3 (CDK4, Homo sapiens, UniProt P11802) | binding, competition with immobilised ligand | – | 100% |
| MAP3K13 (Homo sapiens, UniProt O43283) | kinase binding, KINOMEscan | relative to: DMSO control | 100% |

Series 2 — cell line: MDA-MB-468; observed: cell viability; method: CellCounting-Lite; concentration: 0.3048 nM; temperature: 37 °C; direction: higher = more viable cells
| Compound | luminescence signal |
| --- | --- |
| CCn1cnc2c(NCc3nc4cc(Cl)c(Cl)cc4[nH]3)nc(N3CCN(Cc4ccncc4)CC3)nc21 | 449000 a.u. and 480000 a.u. and 549000 a.u. |
| CCn1cnc2c(NCc3nc4cc(Cl)c(Cl)cc4[nH]3)nc(N3CCN(C(=O)CNC(C)=O)CC3)nc21 | 415000 a.u. and 485000 a.u. and 386000 a.u. |
| CCn1cnc2c(NCc3nc4cc(F)c(F)cc4[nH]3)nc(N3CCn4ncnc4C3)nc21 | 454000 a.u. and 444000 a.u. and 434000 a.u. |
| CC(=O)N1CCN(c2nc(NCc3nc4cc(Cl)c(Cl)cc4[nH]3)c3ncn(C)c3n2)CC1 | 412000 a.u. and 419000 a.u. and 498000 a.u. |
| CCCCOc1nc(NCc2nc3cc(Cl)c(Cl)cc3[nH]2)c2ncn(CC)c2n1 | 513000 a.u. and 474000 a.u. and 466000 a.u. |
| CCn1cnc2c(NCc3nc4cc(Cl)c(Cl)cc4[nH]3)nc(N3CCN(C(C)=O)CC3)nc21 | 464000 a.u. and 519000 a.u. and 478000 a.u. |
| CCn1cnc2c(NCc3nc4cc(Cl)c(Cl)cc4[nH]3)nc(N3CCN(C(=O)[C@H](C)NC(C)=O)CC3)nc21 | 510000 a.u. and 450000 a.u. and 524000 a.u. |
| CCn1cnc2c(NCc3nc4cc(Cl)c(Cl)cc4[nH]3)nc(N3CCN(C(=O)c4cccnc4)CC3)nc21 | 371000 a.u. and 472000 a.u. and 476000 a.u. |
| CC(=O)N1CCN(c2nc(NCc3nc4cc(Cl)c(Cl)cc4[nH]3)c3ncn(C(C)C)c3n2)CC1 | 419000 a.u. and 466000 a.u. and 472000 a.u. |
| CCn1cnc2c(NCc3nc4cc(Cl)c(Cl)cc4[nH]3)nc(N3CCN(C(=O)c4ccccc4)CC3)nc21 | 457000 a.u. and 463000 a.u. and 521000 a.u. |
| CCn1cnc2c(NCc3nc4cc(Cl)c(Cl)cc4[nH]3)nc(N3CCN(c4ccccn4)CC3)nc21 | 452000 a.u. and 454000 a.u. and 409000 a.u. |

Series 3 — method: microarray; relative to: untreated
Compound: COCCCCCCC1CC2C(CCC3(C)C(O)CCC23)c2ccc(O)cc21 (stereo not drawn)
| cell line | assay | conditions | log2 fold change |
| --- | --- | --- | --- |
| SK-OV-3 | measured: CCL11 | 50 µM | 0 |
| SK-OV-3 | measured: ACTA2 | 50 µM | -0.449 |
| PANC-1 | measured: GZMK | 50 µM | 3.38 |
| PANC-1 | measured: CCL8 | 10 µM | 5.03 |
| PANC-1 | measured: ISG20L1 | 10 µM | -0.0254 |
| SK-OV-3 | measured: GZMK | 10 µM | 4.57 |
| PANC-1 | measured: ADAMTS8 | 50 µM | -1.12 |
| PANC-1 | measured: GADD45A | 10 µM | 0.145 |
| SK-OV-3 | measured: ADAMTS8 | 50 µM | 0 |
| PANC-1 | measured: ADAMTS14 | 50 µM | -0.274 |

Series 4 — observed: binding; mode: competitor; method: NanoBRET; cells: HEK293
SMILES: CN1CCC[C@H]1COc1nc2c(c(N3CCN(C(=O)C(F)(F)F)[C@@H](CC#N)C3)n1)CCN(c1cccc3cccc(Cl)c13)C2
KRAS Q61R: GTPase KRas (KRAS, Homo sapiens, UniProt P01116, Q61R)
KRAS Q61H: GTPase KRas (KRAS, Homo sapiens, UniProt P01116, Q61H)
KRAS G13D: GTPase KRas (KRAS, Homo sapiens, UniProt P01116, G13D)
KRAS G12D: GTPase KRas (KRAS, Homo sapiens, UniProt P01116, G12D)
| target | conditions | normalized BRET |
| --- | --- | --- |
| KRAS Q61R | 15.2 nM | 92.9% and 99% and 104% |
| KRAS Q61H | 412 nM | 79.7% and 86.3% and 86% and 97.3% |
| KRAS Q61R | 137 nM | 106% and 93.6% and 91.8% |
| KRAS G13D | 15.2 nM | 96.4% and 101% and 86.6% and 105% |
| KRAS G12D | 1.69 nM | 112% and 93.4% and 102% |
| GTPase KRas (KRAS, Homo sapiens, UniProt P01116, Q61L) | 45.7 nM | 91.6% and 91.9% and 96.9% |
| KRAS Q61H | 45.7 nM | 84.5% and 89.8% and 97.6% and 98.7% |
| KRAS G13D | 412 nM | 99.1% and 82.4% and 97.2% and 79.9% |
| KRAS G13D | 1.69 nM | 87.9% and 96.1% and 104% and 94.7% |
| KRAS G12D | 137 nM | 96.4% and 107% and 95.8% |

Series 5 — observed: thermal unfolding; method: differential scanning fluorimetry; concentration: 5.5 µM; direction: higher = more unfolded
Compound: C[C@@H]1CN(c2ccc(-c3cc(C(=O)NCCOCCOCCOCCOCCNC(=O)/C=C/c4[nH]cc(C(=O)N[C@@H](CC(N)=O)c5ccc(F)c(Cl)c5)c4-c4ccc(Cl)cc4F)ccc3F)cc2NC(=O)c2c[nH]c(=O)cc2C(F)(F)F)C[C@H](C)N1C
DCAF1: DDB1- and CUL4-associated factor 1 (DCAF1, Homo sapiens, UniProt Q9Y4B6)
Chain of UniProt Q9Y4B6 (whole entry, looked up): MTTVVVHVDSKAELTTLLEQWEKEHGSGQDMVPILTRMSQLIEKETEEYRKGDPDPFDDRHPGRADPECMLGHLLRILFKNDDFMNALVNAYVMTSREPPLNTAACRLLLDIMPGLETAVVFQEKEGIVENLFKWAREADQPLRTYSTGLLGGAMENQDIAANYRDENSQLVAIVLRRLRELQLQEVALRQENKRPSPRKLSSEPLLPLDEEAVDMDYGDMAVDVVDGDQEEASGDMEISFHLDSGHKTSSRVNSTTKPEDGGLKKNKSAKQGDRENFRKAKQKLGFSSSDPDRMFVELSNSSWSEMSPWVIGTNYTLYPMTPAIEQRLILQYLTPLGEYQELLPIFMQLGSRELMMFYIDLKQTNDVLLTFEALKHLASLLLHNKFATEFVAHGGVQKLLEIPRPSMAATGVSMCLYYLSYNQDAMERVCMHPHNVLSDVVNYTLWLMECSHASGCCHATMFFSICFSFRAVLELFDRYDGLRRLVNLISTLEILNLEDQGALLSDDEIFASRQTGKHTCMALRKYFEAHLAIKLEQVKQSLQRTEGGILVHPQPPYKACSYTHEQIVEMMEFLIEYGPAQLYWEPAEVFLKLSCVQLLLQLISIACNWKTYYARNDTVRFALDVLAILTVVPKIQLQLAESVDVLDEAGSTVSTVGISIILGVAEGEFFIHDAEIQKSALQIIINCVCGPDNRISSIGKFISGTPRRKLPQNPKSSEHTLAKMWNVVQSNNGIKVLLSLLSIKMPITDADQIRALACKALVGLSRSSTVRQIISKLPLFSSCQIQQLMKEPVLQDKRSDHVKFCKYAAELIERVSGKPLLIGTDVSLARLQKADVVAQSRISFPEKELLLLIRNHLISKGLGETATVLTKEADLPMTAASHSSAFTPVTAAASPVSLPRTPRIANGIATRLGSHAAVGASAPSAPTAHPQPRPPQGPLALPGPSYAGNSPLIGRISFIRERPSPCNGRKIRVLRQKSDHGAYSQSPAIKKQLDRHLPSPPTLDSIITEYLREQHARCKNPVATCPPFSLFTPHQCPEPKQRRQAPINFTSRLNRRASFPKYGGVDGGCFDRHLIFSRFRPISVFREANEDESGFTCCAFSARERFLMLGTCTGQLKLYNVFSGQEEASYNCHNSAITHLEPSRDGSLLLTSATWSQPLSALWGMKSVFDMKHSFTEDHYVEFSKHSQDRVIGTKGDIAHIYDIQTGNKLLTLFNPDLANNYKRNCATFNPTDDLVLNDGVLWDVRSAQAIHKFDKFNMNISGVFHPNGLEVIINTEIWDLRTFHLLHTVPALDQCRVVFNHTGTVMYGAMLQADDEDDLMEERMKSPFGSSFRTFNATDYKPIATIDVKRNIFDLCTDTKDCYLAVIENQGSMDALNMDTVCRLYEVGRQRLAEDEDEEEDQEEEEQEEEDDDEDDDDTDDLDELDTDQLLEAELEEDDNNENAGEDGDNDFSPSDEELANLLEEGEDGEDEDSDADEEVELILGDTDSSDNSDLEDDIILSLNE
WDR5: WD repeat-containing protein 5 (WDR5, Homo sapiens, UniProt P61964)
| target | conditions | SYPRO Orange fluorescence [a.u.] |
| --- | --- | --- |
| DCAF1 | 79.41 °C | 45900 |
| DCAF1 | 58.21 °C | 32200 |
| DCAF1 | 43 °C | 12400 |
| DCAF1 | 79.21 °C | 46100 |
| WDR5 | 84.41 °C | 51400 |
| DCAF1 | 74.81 °C | 50200 |
| WDR5 | 38.2 °C | 14000 |
| WDR5 | 47.8 °C | 15900 |
| WDR5 | 93.81 °C | 46600 |
| DCAF1 | 94.81 °C | 29900 |
| WDR5 | 72.61 °C | 20500 |

Series 6 — Compound: CCNC(=O)COc1ccc(I)c(C)c1; mode: inhibitor; cells: CHO-BC cells; notes: unit not given; relative to: uninhibited cells
Target: Sodium-dependent neutral amino acid transporter B(0)AT1 (SLC6A19, Homo sapiens, UniProt Q695T7)
Chain of UniProt Q695T7 (whole entry, looked up): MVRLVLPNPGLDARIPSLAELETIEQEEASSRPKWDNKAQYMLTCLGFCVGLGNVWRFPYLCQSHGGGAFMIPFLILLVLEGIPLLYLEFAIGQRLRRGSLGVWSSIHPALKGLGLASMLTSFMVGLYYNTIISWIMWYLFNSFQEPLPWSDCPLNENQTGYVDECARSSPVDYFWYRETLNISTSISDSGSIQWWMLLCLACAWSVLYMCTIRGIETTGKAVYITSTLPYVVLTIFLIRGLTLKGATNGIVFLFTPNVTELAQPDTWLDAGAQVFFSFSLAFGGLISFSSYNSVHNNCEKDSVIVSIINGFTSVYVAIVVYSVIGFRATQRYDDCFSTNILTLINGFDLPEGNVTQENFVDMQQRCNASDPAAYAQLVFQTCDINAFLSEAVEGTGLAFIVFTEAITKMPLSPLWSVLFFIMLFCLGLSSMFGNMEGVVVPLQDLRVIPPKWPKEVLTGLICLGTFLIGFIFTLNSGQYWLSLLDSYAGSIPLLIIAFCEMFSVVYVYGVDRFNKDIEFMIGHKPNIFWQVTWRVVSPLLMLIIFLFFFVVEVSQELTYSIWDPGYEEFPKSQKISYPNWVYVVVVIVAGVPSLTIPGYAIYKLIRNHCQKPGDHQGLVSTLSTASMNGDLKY
| assay | conditions | remaining transport activity |
| --- | --- | --- |
| L-[14C]leucine uptake | 0.01 µM, 6 min, 37 °C, added: GPNA 3 mM, JPH203 3 µM | 0.847 |
| FLIPR membrane potential | 0.003 µM | 0.879 |
| FLIPR membrane potential | 0.03 µM | 0.572 |

Series 7 — observed: enzyme activity; mode: inhibitor; method: fluorescence
SMILES: NC/C(=C\F)COc1cc(Cn2c(=S)[nH]c(=O)c3[nH]cnc32)cc(C(F)(F)F)c1
MPO: Myeloperoxidase (MPO, Homo sapiens, UniProt P05164)
Chain of UniProt P05164 (whole entry, looked up): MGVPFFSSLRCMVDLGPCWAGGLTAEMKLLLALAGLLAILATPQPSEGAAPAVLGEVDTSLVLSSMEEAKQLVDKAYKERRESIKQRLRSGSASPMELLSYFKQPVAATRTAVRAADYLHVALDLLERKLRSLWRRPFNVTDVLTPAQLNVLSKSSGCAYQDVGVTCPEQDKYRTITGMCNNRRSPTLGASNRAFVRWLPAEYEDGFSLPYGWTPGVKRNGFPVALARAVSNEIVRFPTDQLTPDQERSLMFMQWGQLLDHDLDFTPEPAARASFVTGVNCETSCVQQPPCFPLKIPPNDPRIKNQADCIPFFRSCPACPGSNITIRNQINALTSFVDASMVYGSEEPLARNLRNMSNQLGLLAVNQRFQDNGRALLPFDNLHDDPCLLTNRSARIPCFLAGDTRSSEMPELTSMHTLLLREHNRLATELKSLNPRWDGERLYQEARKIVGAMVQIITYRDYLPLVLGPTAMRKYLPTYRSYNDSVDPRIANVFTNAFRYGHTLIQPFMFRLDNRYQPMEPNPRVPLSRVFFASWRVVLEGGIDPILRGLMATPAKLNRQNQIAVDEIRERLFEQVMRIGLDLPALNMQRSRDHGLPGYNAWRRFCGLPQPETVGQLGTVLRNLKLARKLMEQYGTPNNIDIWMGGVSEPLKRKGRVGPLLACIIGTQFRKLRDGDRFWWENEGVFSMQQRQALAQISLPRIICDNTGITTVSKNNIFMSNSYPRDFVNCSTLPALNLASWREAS
AOC3: Amine oxidase [copper-containing] 3 (AOC3, Homo sapiens, UniProt Q16853)
Chain of UniProt Q16853 (whole entry, looked up): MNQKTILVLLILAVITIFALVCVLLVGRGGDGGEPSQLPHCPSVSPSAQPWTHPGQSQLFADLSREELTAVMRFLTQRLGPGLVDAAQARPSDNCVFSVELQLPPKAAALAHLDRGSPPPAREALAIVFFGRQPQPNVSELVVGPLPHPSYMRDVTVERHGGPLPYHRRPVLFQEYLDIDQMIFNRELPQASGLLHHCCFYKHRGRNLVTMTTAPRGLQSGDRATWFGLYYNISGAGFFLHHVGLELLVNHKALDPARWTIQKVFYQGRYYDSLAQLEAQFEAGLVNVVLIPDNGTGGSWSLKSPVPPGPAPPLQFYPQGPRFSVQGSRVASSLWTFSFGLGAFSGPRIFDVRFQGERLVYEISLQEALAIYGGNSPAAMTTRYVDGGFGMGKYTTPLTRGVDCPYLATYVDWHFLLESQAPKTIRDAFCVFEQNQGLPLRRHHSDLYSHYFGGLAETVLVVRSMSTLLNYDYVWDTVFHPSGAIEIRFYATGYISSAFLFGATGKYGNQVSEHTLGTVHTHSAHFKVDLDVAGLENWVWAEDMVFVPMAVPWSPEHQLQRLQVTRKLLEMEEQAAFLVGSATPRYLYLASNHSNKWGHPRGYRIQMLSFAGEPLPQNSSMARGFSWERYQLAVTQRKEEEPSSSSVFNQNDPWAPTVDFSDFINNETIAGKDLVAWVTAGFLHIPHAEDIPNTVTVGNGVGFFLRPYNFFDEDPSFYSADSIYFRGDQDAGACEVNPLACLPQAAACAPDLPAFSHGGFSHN
| target | conditions | inhibition |
| --- | --- | --- |
| MPO | 6.9 nM | 47.3% |
| MPO | 0.1852 µM | 98.8% |
| AOC3 | 41.2 nM | -4.02% and -0.0031% and -0.502% and -2.87% |
| MPO | 10 µM | 101% |
| MPO | 800 pM | 3.83% |
| AOC3 | 3.333 µM | 78.3% and 62% and 66.3% |
| MPO | 1.667 µM | 100% |
| AOC3 | 10 µM | 83.3% and 93.5% and 88.7% and 94.5% |

A few entries again (series 1):
| target | assay | how to read | remaining binding |
| --- | --- | --- | --- |
| PHKG2 (Homo sapiens, UniProt P15735) | binding, competition with immobilised ligand | – | 98% |
| CDPK1 (Plasmodium falciparum, UniProt P62344) | binding, competition with immobilised ligand | – | 96% |
| MAPK6 (Homo sapiens, UniProt Q16659) | kinase binding, KINOMEscan | relative to: DMSO control | 100% |
| AAK1 (Homo sapiens, UniProt Q2M2I8) | kinase binding, KINOMEscan | relative to: DMSO control | 90% |
| BRAF (Homo sapiens, UniProt P15056, V600E) | kinase binding, KINOMEscan | relative to: DMSO control | 100% |
| IGF1R (Homo sapiens, UniProt P08069) | binding, competition with immobilised ligand | – | 100% |
| PHKG1 (Homo sapiens, UniProt Q16816) | binding, competition with immobilised ligand | – | 96% |
| MAP3K13 (Homo sapiens, UniProt O43283) | kinase binding, KINOMEscan | relative to: DMSO control | 100% |
| Cyclin-dependent kinase 4, with cyclin D3 (CDK4, Homo sapiens, UniProt P11802) | binding, competition with immobilised ligand | – | 100% |
| Tyrosine-protein kinase ABL1, phosphorylated (ABL1, Homo sapiens, UniProt P00519, Q252H) | binding, competition with immobilised ligand | – | 66% |
